Results from different studies.
Each line is one published result; not all experiments were run side by side. Several values in a cell are separate wells, animals, samples, runs or records. ± gives the spread as reported. In brackets after ≈: the same amount, converted by molar mass.

Substance	test	system	conditions	how to read	quantity	value
CC[C@H](C)[C@@H]1NC(=O)[C@H](Cc2ccc(O)cc2)NC(=O)[C@@H](N)CSSC[C@@H](C(=O)N2CCC[C@H]2C(=O)N[C@@H](CC(C)C)C(=O)NCC(N)=O)NC(=O)[C@H](CC(N)=O)NC(=O)[C@H](CCC(N)=O)NC1=O	microdialysis, radioimmunoassay	C57BL/6J male mice, wild type, hippocampus extracellular fluid	intranasal, 12 µg	–	Cmax	2.7 ± 1.24 pg/sample
CCn1c(C(=O)c2cc(C)cc(C#N)c2)c(C(C)C)c(=O)[nH]c1=O	–	healthy humans, plasma	oral, 75 mg once daily, 7 days	–	Cmax at steady state	385 ± 126 ng/mL
CNc1nc(Nc2ccc(-n3cnc(C)n3)c(OC)c2)nc2c1CC[C@H]2c1ccc(F)cc1	–	human, plasma	oral, 1200 mg, single dose, healthy volunteers	–	Tmax	4 h
C[C@](N)(Cc1ccc(O)c(O)c1)C(=O)O	–	supercritical carbon dioxide	5 h, 313 K, 30 MPa, density 910.3 kg/m3	–	solubility	334 µg/mL (≈ 1580 µM)
Oc1ccc(C(c2ccc(O)cc2)(C(F)(F)F)C(F)(F)F)cc1	refers to: free compound	Hsd:Sprague Dawley rat female, plasma	oral gavage, 340 mg/kg single dose	–	alpha half-life	0.912 h
CN1CC[C@@H](NC(=O)Nc2ccc(C#N)cc2)C[C@@H]1c1nc2ccccc2[nH]1	–	Japanese patients, plasma	oral, 50 mg once daily, cycle 1 day 21, steady state, geometric mean	–	average plasma concentration	388 ng/mL
des-acyl ghrelin (human)	–	Ghsr knockout mice, pons and medulla	intravenous, dose not given, 10 min, vascular space corrected	–	tissue/serum ratio	14.1 µL/g
CC[C@H](C)[C@H](NC(=O)[C@H](CC(C)C)NC(=O)[C@H](Cc1c[nH]c2ccccc12)NC(=O)[C@H](C)NC(=O)[C@@H](NC(=O)[C@H](Cc1ccccc1)NC(=O)[C@H](CC(=O)O)NC(=O)[C@H](CCCNC(=N)N)NC(=O)[C@H](C)NC(=O)[C@H](C)NC(=O)[C@H](CC(C)C)NC(=O)[C@H](C)NC(=O)[C@H](CC(=O)O)NC(=O)[C@H](CC(C)C)NC(=O)[C@@H](NC(=O)[C@@H](NC(=O)[C@H](C)NC(=O)[C@H](CC(C)C)NC(=O)[C@H](CCC(=O)O)NC(=O)[C@H](CO)NC(=O)[C@H](CO)NC(=O)[C@H](Cc1ccccc1)NC(=O)[C@@H](NC(=O)CNC(=O)[C@H](CCC(=O)O)NC(=O)CNC(=O)[C@@H](N)Cc1cnc[nH]1)[C@@H](C)O)[C@@H](C)O)[C@@H](C)CC)[C@@H](C)CC)C(=O)N[C@@H](C)C(=O)N[C@H](C(=O)N[C@@H](CCCCN)C(=O)N[C@H](C(=O)N[C@H](C(=O)N[C@@H](CC(=O)O)C(=O)N[C@@H](CCCCN)C(=O)N[C@@H](CCCCN)C(=O)N[C@@H](CCCCN)C(=O)N[C@@H](CCCCN)C(=O)N[C@@H](CCCCN)C(=O)N[C@@H](CCCCN)C(N)=O)[C@@H](C)O)[C@@H](C)CC)[C@@H](C)O	immunoaffinity LC-MS/MS	healthy human subjects, plasma	subcutaneous, 10 mg once weekly, day 36 after 6 doses, steady state, geometric mean	–	AUClast	1.04 nM·h
CC[C@H](C)[C@H](NC(=O)[C@H](Cc1ccccc1)NC(=O)[C@H](CCC(=O)O)NC(=O)[C@H](CCCCNC(=O)COCCOCCNC(=O)COCCOCCNC(=O)CC[C@H](NC(=O)CCCCCCCCCCCCCCCCC(=O)O)C(=O)O)NC(=O)[C@H](C)NC(=O)[C@H](C)NC(=O)[C@H](CCC(N)=O)NC(=O)CNC(=O)[C@H](CCC(=O)O)NC(=O)[C@H](CC(C)C)NC(=O)[C@H](Cc1ccc(O)cc1)NC(=O)[C@H](CO)NC(=O)[C@H](CO)NC(=O)[C@@H](NC(=O)[C@H](CC(=O)O)NC(=O)[C@H](CO)NC(=O)[C@@H](NC(=O)[C@H](Cc1ccccc1)NC(=O)[C@@H](NC(=O)CNC(=O)[C@H](CCC(=O)O)NC(=O)C(C)(C)NC(=O)[C@@H](N)Cc1cnc[nH]1)[C@@H](C)O)[C@@H](C)O)C(C)C)C(=O)N[C@@H](C)C(=O)N[C@@H](Cc1c[nH]c2ccccc12)C(=O)N[C@@H](CC(C)C)C(=O)N[C@H](C(=O)N[C@@H](CCCNC(=N)N)C(=O)NCC(=O)N[C@@H](CCCNC(=N)N)C(=O)NCC(=O)O)C(C)C	–	healthy Chinese subjects, plasma	subcutaneous, 1.0 mg once weekly	–	average steady-state concentration	47.4 nmol/L
CCCC[C@H](NC(C)=O)C(=O)N[C@H]1CCC(=O)NC[C@@H](C(=O)N[C@@H](Cc2c[nH]c3ccccc23)C(N)=O)NC(=O)[C@H](CCCNC(=N)N)NC(=O)[C@@H](Cc2ccccc2)NC(=O)[C@H](Cc2c[nH]cn2)NC1=O	–	male Sprague-Dawley rat, plasma	subcutaneous, 5 mg/kg, multiple doses, once daily	–	CL/F	16.2 mL/min/kg
NC(=O)N1c2ccccc2C=Cc2ccccc21	shake-flask	polysorbate 80	37 °C	–	thermodynamic solubility	34.6 ± 1.45 mg/g
CC1=C2C[C@H]3[C@@H](CC[C@@H]4C[C@H](NS(C)(=O)=O)CC[C@@]43C)[C@@H]2CC[C@@]2(C1)O[C@@H]1C[C@H](C)CN[C@H]1[C@H]2C	–	patients, plasma	oral, 40 mg single, day -7, cycle 1	–	AUC(0-24)	122 ng·h/mL
Cc1c(Cl)c(C)[n+]([O-])c(Cl)c1-c1noc(-c2cc(O)c(O)c([N+](=O)[O-])c2)n1	–	human, male, urine, faeces, expired air	oral, 100 mg, 144 h	reference: dose	total radioactivity recovered	> 90%
RTRYED	substrate, gel electrophoresis	peptide, mouse, PyMT tumour, PyMT tumour tissue extract	5 µM, 16 h, 37 °C, 2% extract, 1 mM ZnCl2	–	peptide cleavage	> 90% and > 80%
O[C@H](C[C@H]1c2c(F)cccc2-c2cncn21)[C@H]1CC[C@H](O)CC1	–	human, faeces	oral, 200 mg, [14C] labelled	reference: dose	radioactivity recovered in faeces	7.4% and 7.44%
COc1cc(OC)c(/C=C/S(=O)(=O)Cc2ccc(OC)c(NCC(=O)O)c2)c(OC)c1	–	cancer patients, phase I, plasma	oral, 560 mg twice daily, day 21 cycle 1	–	AUC(0-inf)	6990 ± 5880 ng·h/mL
CC(C)CC(=O)NCC(=O)O	–	human hemodialysis patients, plasma	pre-treatment	reference: hemodialysis over normal subjects	total plasma concentration ratio	9
COC1=CC(=O)C[C@@H](C)[C@]12Oc1c(Cl)c(OC)cc(OC)c1C2=O	shake-flask	soybean oil	37 °C	–	thermodynamic solubility	0.5 ± 0.06 mg/g
Oc1ccc2c3c(cnc2c1)-c1ccc(C(F)(F)F)cc1O[C@@H]3c1ccc(OCCN2CC(CF)C2)cc1	–	healthy postmenopausal women, plasma	oral solution, 400 mg [14C]-labelled, single dose, fasted	arithmetic mean	AUC0‐tlast of total radioactivity	17100 ng·h eq/mL

For quick reference, copied from above:
Substance	test	system	conditions	how to read	quantity	value
des-acyl ghrelin (human)	–	Ghsr knockout mice, pons and medulla	intravenous, dose not given, 10 min, vascular space corrected	–	tissue/serum ratio	14.1 µL/g
